# Results gathered from unrelated publications.
# Sequences of proteins named here, by UniProt entry; tags and fusion partners are left off.
# UniProt P9WPP7, whole entry: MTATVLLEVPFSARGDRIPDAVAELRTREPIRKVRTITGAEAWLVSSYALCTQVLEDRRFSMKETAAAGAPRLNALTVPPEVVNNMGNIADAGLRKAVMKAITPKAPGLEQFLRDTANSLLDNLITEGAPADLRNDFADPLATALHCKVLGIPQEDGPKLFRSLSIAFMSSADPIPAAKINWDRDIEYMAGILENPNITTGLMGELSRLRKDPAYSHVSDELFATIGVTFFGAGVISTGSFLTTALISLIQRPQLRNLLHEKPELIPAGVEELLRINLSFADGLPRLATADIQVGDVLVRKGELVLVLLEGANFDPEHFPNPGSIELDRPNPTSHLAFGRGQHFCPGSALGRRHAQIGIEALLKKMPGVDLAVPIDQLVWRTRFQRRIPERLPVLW
# Protocols differ between the studies behind these lines. Numbers after ± are the reported error.
# cyp121: Mycocyclosin synthase (cyp121, Mycobacterium tuberculosis, UniProt P9WPP7)
SMILES,target or system,assay,test system,setting,scale,measurement,result
NC[C@@H](NC[C@@H]1CCCN1C[C@@H](CO)NC[C@@H](NCCC12CC3CC(CC(C3)C1)C2)c1ccccc1)c1ccccc1,Klebsiella pneumoniae,bacterial growth,,"24 µM, fold shift of IC50, together with: amikacin",,potentiation of amikacin,3.2 fold
CC1CCCCCCCCCCCCC(=O)C1 (centres unmarked),Manis javanica OBP3 F52A,,,concentration not given,reference: wild type,binding affinity,decreased
CCN(CC)C(=O)Oc1ccc(C(=O)Nc2cccc3cc[nH]c23)cc1,,whole-cell patch clamp,"CA1 interneurons s.r./s.l.m., mouse P21-28, acute hippocampal slices","10 µM, holding +40 mV",reference: baseline,NMDAR-EPSC amplitude,57 ± 3%
C[C@@H](O)[C@@H]1NC(=O)[C@@H]2CSCSC[C@@H](C(=O)N[C@H](CC(=O)N[C@@H](CCCNC(=N)N)C(=O)O)Cc3ccc(O)cc3)NC(=O)[C@H](CCC(N)=O)NC(=O)[C@H](Cc3ccc(O)c(I)c3)NC(=O)[C@H](CCCNC(=N)N)NC(=O)[C@H](CSSC[C@H](NC(=O)CN)C(=O)N2)NC(=O)[C@H](CCCNC(=N)N)NC(=O)[C@@H]2CCCN2C(=O)[C@H](CC(=O)O)NC1=O,pain-related receptors and channels,radioligand binding,,10 µM,,inhibition,< 50%
CC(C)C(C(=O)N(Cc1ccc(C2CCCCC2)cc1)c1ccc(C(=O)O)cc1)N(C)S(=O)(=O)c1c(F)c(F)c(F)c(F)c1F (centres unmarked),Pa03C-CAF co-culture spheroids,"cell growth, Alamar blue",,12 days,,IC50,23.5 ± 4.4 µM
CO[C@H]1[C@H](O[C@H]([C@H]2O[C@@H](n3ccc(=O)[nH]c3=O)[C@H](O)[C@@H]2O)[C@H](NCCCNC(=O)[C@@H](NC(=O)[C@@H](NC(=O)N[C@H](C(=O)O)C(C)C)[C@@H]2CCNC(=N)N2)[C@@H](OC(=O)CCCCCCCCCCCCNC(=N)N)C(C)C)C(N)=O)O[C@H](CN)[C@H]1O,Aspergillus fumigatus,alamar blue,,,,MIC50,> 35 µg/mL
CCC(c1ccc(-c2ccc(F)c(F)c2)cc1)n1ccnc1 (centres unmarked),cyp121,,,racemate,,Kd,≤ 6 µM
NC[C@@H](NC[C@@H]1CCCN1C[C@@H](CO)NC[C@@H](NCCc1ccc(-c2ccccc2)cc1)c1ccccc1)c1ccccc1,Escherichia coli,bacterial growth,,"8 µM, fold shift of IC90, together with: amikacin",,potentiation of amikacin,1.1 fold
O=S(=O)(O)c1ccc2c(c1)Cc1cc(S(=O)(=O)O)ccc1-2,Escherichia coli,"bacterial growth, broth microdilution",expressing OXA-48,"256 µg/mL, together with: ampicillin",MIC of ampicillin,MIC of ampicillin,32 µg/mL
CCCCCCCCCCCCNC(=O)N[C@H](C(=O)N[C@H]1/C=C/CCNC(=O)/C=C/[C@H](C)NC1=O)C(C)C,Mino bortezomib-resistant,"cell viability, CellTiter-Glo",,24 h,,EC50,0.129 ± 0.002 µM
Cc1ccc(-c2csc(NP(=O)(O)OCC3OC(n4cnc5c(=O)[nH]c(NC(=O)c6ccccc6)nc54)C4OC(C)(C)OC34)n2)cc1 (centres unmarked),Vero,"cell growth, SRB",,,,IC50,> 100 µM
O=S(=O)(O)c1ccc(-c2ccc(S(=O)(=O)O)cc2)cc1,Escherichia coli,"bacterial growth, broth microdilution",expressing OXA-48,"256 µg/mL, together with: ampicillin",MIC of ampicillin,MIC of ampicillin,32 µg/mL
NC[C@@H](NC[C@@H]1CCCN1C[C@@H](CO)NC[C@@H](NCCc1ccc(Cl)c(Cl)c1)c1ccccc1)c1ccccc1,Klebsiella pneumoniae,bacterial growth,,"8 µM, fold shift of IC90, together with: amikacin",,potentiation of amikacin,1 fold
Cc1cc(=O)oc2cc(OCCCCn3cc(COc4ccc(N5C(N)=NC(N)=NC56CCCCC6)cc4)nn3)ccc12,Mycobacterium bovis,,"BCG Tac^r7.1, thyA A148E missense",TA-C-resistant thyA mutant,,MIC50,3.2 µM
O=C(O)c1ccc(-c2cccc(C(=O)O)c2)cc1,Escherichia coli,"bacterial growth, broth microdilution",expressing OXA-48,"256 µg/mL, together with: ampicillin",MIC of ampicillin,MIC of ampicillin,64 µg/mL
C[C@H](CS)C(=O)N[C@@H](Cc1c[nH]c2ccccc12)C(=O)O,Klebsiella pneumoniae,,VIM-1 producing,"25 µM, together with: meropenem",,MIC of meropenem,16 µg/mL
COCCCn1nc(-c2ccc(CC(=O)Nc3cccc(F)c3)cc2)c2c(N)ncnc21,LC-2/ad (CCDC6-RET fusion),cell viability,,,,EC50,2.41 ± 0.16 µM
CCC(c1ccc(-c2ccc(F)cc2F)cc1F)n1ccnc1 (centres unmarked),cyp121,binding,,,,Kd,4.8 ± 0.84 µM
CC(CCN[C@H](CN[C@H](CO)CN1CCC[C@H]1CN[C@H](CN)c1ccccc1)c1ccccc1)c1ccccc1 (some centres unmarked),Acinetobacter baumannii,bacterial growth,,"16 µM, fold shift of IC50, together with: amikacin",,potentiation of amikacin,2.1 fold
CN1CC[C@]23c4c5ccc(O)c4O[C@H]2c2ncc(-c4ccc(Cl)cc4)cc2C[C@@]3(OCCCc2ccccc2)[C@H]1C5,,tolerance,"CD-1 mouse, HIV neuropathy","sc, 10 mg/kg twice daily, 3 days",,days to zero efficacy,4.9 days
CO[C@H]1[C@H](O[C@H]([C@H]2O[C@@H](n3ccc(=O)[nH]c3=O)[C@H](O)[C@@H]2O)[C@H](NCCCNC(=O)[C@@H](NC(=O)[C@@H](NC(=O)N[C@H](C(=O)O)C(C)C)[C@@H]2CCNC(=N)N2)[C@@H](OC(=O)CCCCCCCCCCCCN(O)C(=N)N)C(C)C)C(N)=O)O[C@H](CN)[C@H]1O,Candida albicans,alamar blue,18 M,,,MIC50,> 35 µg/mL
"Oc1cccc2c1OC1CCCC3CN(CC4CC4)CCC231 (single isomer, unassigned)",,"morphine antinociception, antagonist, tail-flick test",male ICR mice,"subcutaneous, 10 min before morphine, tested 10 min after, water 55 °C, together with: morphine 10 nmol i.c.v.",,ED50,0.19 mg/kg
Cc1cc(N)nc(-c2ccc(CNCCc3cccc(F)c3)cc2)c1,Bacillus subtilis NOS bi-domain,"enzyme activity, inhibitor",,,,Ki,1.94 µM
CC(C)C[C@@H]1NC(=O)[C@H](CCC(=O)O)NC(=O)[C@@H]2CSSC[C@@H]3NC(=O)[C@H](C)NC(=O)[C@@H]4CCCN4C(=O)[C@H](CC(N)=O)NC(=O)[C@H](CSSC[C@H](NC(=O)[C@H](Cc4ccc(O)cc4)NC(=O)[C@H](CC(N)=O)NC(=O)[C@H](CO)NC(=O)[C@H](CO)NC(=O)CN4CCCN(CC(=O)O)CCN(CC(=O)O)CCCN(CC(=O)O)CC4)C(=O)N2)NC(=O)[C@H](CSSC[C@@H](C(=O)N[C@@H](Cc2ccccc2)C(=O)O)NC(=O)CNC(=O)[C@H]([C@@H](C)O)NC3=O)NC1=O [copper-64 labelled],T84,,,"concentration not given, 100 min, pH 5.5, 37 °C, 64Cu-labelled compound",reference: cell-associated,internalized radioactivity,49.1 ± 2.7%
NC[C@@H](NC[C@@H]1CCCN1C[C@@H](CO)NC[C@@H](NCCC1CC2CCC1C2)c1ccccc1)c1ccccc1 (some centres unmarked),Escherichia coli,bacterial growth,,"16 µM, fold shift of IC50, together with: amikacin",,potentiation of amikacin,3.3 fold
C=CC(=O)Nc1cc(-n2c(=O)ccc3cnc4ccc(-c5cn[nH]c5)cc4c32)ccc1C,HCT-116,cell growth,,72 h,,GI50,> 10 µM

# A few entries again:
SMILES,target or system,assay,test system,setting,scale,measurement,result
CCN(CC)C(=O)Oc1ccc(C(=O)Nc2cccc3cc[nH]c23)cc1,,whole-cell patch clamp,"CA1 interneurons s.r./s.l.m., mouse P21-28, acute hippocampal slices","10 µM, holding +40 mV",reference: baseline,NMDAR-EPSC amplitude,57 ± 3%
C[C@@H](O)[C@@H]1NC(=O)[C@@H]2CSCSC[C@@H](C(=O)N[C@H](CC(=O)N[C@@H](CCCNC(=N)N)C(=O)O)Cc3ccc(O)cc3)NC(=O)[C@H](CCC(N)=O)NC(=O)[C@H](Cc3ccc(O)c(I)c3)NC(=O)[C@H](CCCNC(=N)N)NC(=O)[C@H](CSSC[C@H](NC(=O)CN)C(=O)N2)NC(=O)[C@H](CCCNC(=N)N)NC(=O)[C@@H]2CCCN2C(=O)[C@H](CC(=O)O)NC1=O,pain-related receptors and channels,radioligand binding,,10 µM,,inhibition,< 50%
CC(C)C(C(=O)N(Cc1ccc(C2CCCCC2)cc1)c1ccc(C(=O)O)cc1)N(C)S(=O)(=O)c1c(F)c(F)c(F)c(F)c1F (centres unmarked),Pa03C-CAF co-culture spheroids,"cell growth, Alamar blue",,12 days,,IC50,23.5 ± 4.4 µM
CO[C@H]1[C@H](O[C@H]([C@H]2O[C@@H](n3ccc(=O)[nH]c3=O)[C@H](O)[C@@H]2O)[C@H](NCCCNC(=O)[C@@H](NC(=O)[C@@H](NC(=O)N[C@H](C(=O)O)C(C)C)[C@@H]2CCNC(=N)N2)[C@@H](OC(=O)CCCCCCCCCCCCNC(=N)N)C(C)C)C(N)=O)O[C@H](CN)[C@H]1O,Aspergillus fumigatus,alamar blue,,,,MIC50,> 35 µg/mL
